{"data": "Measurements gathered from unrelated publications", "target": "Mu-type opioid receptor (Oprm1, Rattus norvegicus, UniProt P33535)", "note": "Each line is one published result; not all experiments were run side by side.", "UniProt P33535, sequence (whole entry, looked up)": "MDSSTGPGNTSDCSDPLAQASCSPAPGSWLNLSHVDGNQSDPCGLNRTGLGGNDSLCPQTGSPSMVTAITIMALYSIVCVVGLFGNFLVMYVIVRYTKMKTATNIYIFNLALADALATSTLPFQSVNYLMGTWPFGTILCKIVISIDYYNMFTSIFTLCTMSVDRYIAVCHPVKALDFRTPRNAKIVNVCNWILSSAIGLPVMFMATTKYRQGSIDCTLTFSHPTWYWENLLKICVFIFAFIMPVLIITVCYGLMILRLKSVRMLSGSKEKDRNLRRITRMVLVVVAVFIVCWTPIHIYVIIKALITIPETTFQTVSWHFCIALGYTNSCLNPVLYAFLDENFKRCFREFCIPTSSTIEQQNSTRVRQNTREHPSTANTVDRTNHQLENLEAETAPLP"}
{"SMILES": "Cc1cc(O)cc(C)c1C[C@H](N)C(=O)N[C@@H](C(=O)NCC(=O)N[C@@H](Cc1ccc2ccccc2c1)C(=O)N[C@@H](CC(C)C)C(=O)N[C@@H](CO)C(N)=O)[C@H](C)O", "effect on": "ligand displacement", "method": "radioligand", "pH": "pH 7.4", "notes": "cell membranes", "Ki [nM]": 0.5}
{"SMILES": "Cc1cc(O)cc(C)c1CC(N)C(=O)NC1CCNc2ccc(Cc3ccoc3)cc21 (stereo not drawn)", "effect on": "ligand displacement", "method": "radioligand", "notes": "cell membranes", "Ki [nM]": 0.8}
{"SMILES": "Cc1cc(O)cc(C)c1CC(N)C(=O)NC1CCNc2c(C(=O)NCc3ccccc3)cc(Cc3ccccc3)cc21 (stereo not drawn)", "effect on": "ligand displacement", "method": "radioligand", "notes": "cell membranes", "Ki [nM]": 0.17}
{"SMILES": "CC(=O)N(C)[C@@H](Cc1ccccc1)C(=O)N[C@@H](Cc1ccccc1)C(=O)N[C@@H](Cc1ccc(O)cc1)C(=O)N[C@@H](CCCNC(=N)N)C(=O)N[C@@H](CC(C)C)C(=O)N[C@@H](CCCNC(=N)N)C(=O)N[C@@H](CCCNC(=N)N)C(=O)N[C@H](C)C(=O)N[C@@H](CCCNC(=N)N)C(=O)N1CCC[C@H]1C(=O)N[C@@H](CCCCN)C(N)=O", "effect on": "ligand displacement", "method": "radioligand", "Ki [nM]": 3370}
{"SMILES": "CCc1cc(Cc2ccccc2)cc2c1NCCC2NC(=O)C(N)Cc1c(C)cc(O)cc1C (stereo not drawn)", "effect on": "ligand displacement", "method": "radioligand", "notes": "cell membranes", "Ki [nM]": 0.09}
{"SMILES": "COC(=O)N(C)[C@@H](Cc1ccccc1)C(=O)N[C@@H](Cc1ccccc1)C(=O)N[C@@H](CC1CCCCC1)C(=O)N[C@@H](CCCNC(=N)N)C(=O)N[C@@H](CC(C)C)C(=O)N[C@@H](CCCNC(=N)N)C(=O)N[C@@H](CCCNC(=N)N)C(=O)N[C@H](C)C(=O)N[C@@H](CCCNC(=N)N)C(=O)N1CCC[C@H]1C(=O)N[C@@H](CCCCN)C(N)=O", "effect on": "ligand displacement", "method": "radioligand", "Ki [nM]": 818}
{"SMILES": "CCCc1cc(Cc2ccccc2)cc2c1NCCC2NC(=O)C(N)Cc1c(C)cc(O)cc1C (stereo not drawn)", "effect on": "ligand displacement", "method": "radioligand", "notes": "cell membranes", "Ki [nM]": 0.64}
{"SMILES": "CC(C)C[C@H](NC(=O)[C@H](Cc1ccc2ccccc2c1)NC(=O)CNC(=O)[C@H](NC(=O)[C@@H](N)Cc1ccc(O)cc1)[C@H](C)O)C(=O)N[C@@H](CO[C@@H]1O[C@H](CO)[C@@H](O)[C@H](O)[C@H]1O)C(N)=O", "effect on": "ligand displacement", "method": "radioligand", "pH": "pH 7.4", "notes": "cell membranes", "Ki [nM]": 4.9}
{"SMILES": "CC[C@H](C)[C@H](NC(=O)[C@H](CCCNC(=N)N)NC(=O)[C@H](CCCNC(=N)N)NC(=O)[C@@H]1C/C=C/COc2ccc(cc2)C[C@H](NC(=O)[C@H](Cc2ccccc2)NC(=O)[C@H](Cc2ccccc2)NC(C)=O)C(=O)N[C@@H](CCCNC(=N)N)C(=O)N1)C(=O)N[C@@H](CCCNC(=N)N)C(=O)N1CCC[C@H]1C(=O)N[C@@H](CCCCN)C(N)=O", "effect on": "ligand displacement", "method": "radioligand", "Ki [nM]": 3460}
{"SMILES": "COC(=O)N(C)[C@@H](Cc1ccccc1)C(=O)N[C@@H](Cc1ccccc1)C(=O)N[C@@H](Cc1ccccc1)C(=O)N[C@@H](CCCNC(=N)N)C(=O)N[C@@H](CC(C)C)C(=O)N[C@@H](CCCNC(=N)N)C(=O)N[C@@H](CCCNC(=N)N)C(=O)N[C@H](C)C(=O)N[C@@H](CCCNC(=N)N)C(=O)N1CCC[C@H]1C(=O)N[C@@H](CCCCN)C(N)=O", "effect on": "ligand displacement", "method": "radioligand", "Ki [nM]": 1750}
{"SMILES": "N=C(N)NCCC[C@@H]1NC(=O)[C@H](CCCNC(=N)N)NC(=O)[C@H](NC(=O)[C@H](Cc2ccccc2)NC(=O)CNC(=O)CNC(=O)[C@H](Cc2ccccc2)NCc2ccccc2)CC(=O)NC[C@@H](C(=O)N[C@@H](CCCNC(=N)N)C(=O)N2CCC[C@H]2C(=O)N[C@@H](CCCCN)C(N)=O)NC1=O", "effect on": "ligand displacement", "method": "radioligand", "notes": "cell membranes", "Ki [nM]": 11300}
{"SMILES": "Cc1cc(O)cc(C)c1CC(N)C(=O)NC1CCNc2ccc(Cc3ccc4c(c3)OCO4)cc21 (stereo not drawn)", "effect on": "ligand displacement", "method": "radioligand", "notes": "cell membranes", "Ki [nM]": 0.12}
{"SMILES": "N=C(N)NCCC[C@@H]1NC(=O)[C@H](CCCNC(=N)N)NC(=O)[C@H](NC(=O)[C@H](Cc2ccccc2)NC(=O)CNC(=O)CNC(=O)[C@H](Cc2ccc(O)cc2)NCc2ccccc2)CC(=O)NCC[C@@H](C(=O)N[C@@H](CCCNC(=N)N)C(=O)N2CCC[C@H]2C(=O)N[C@@H](CCCCN)C(N)=O)NC1=O", "effect on": "ligand displacement", "method": "radioligand", "notes": "cell membranes", "Ki [nM]": 3200}
{"SMILES": "Cc1cc(O)cc(C)c1CC(N)C(=O)NC1CCNc2c(CN3CCCCC3)cc(Cc3ccccc3)cc21 (stereo not drawn)", "effect on": "ligand displacement", "method": "radioligand", "notes": "cell membranes", "Ki [nM]": 0.07}
{"SMILES": "Cc1cc(O)cc(C)c1CC(N)C(=O)NC1CCNc2ccc(Cc3ccc4ncccc4c3)cc21 (stereo not drawn)", "effect on": "ligand displacement", "method": "radioligand", "notes": "cell membranes", "Ki [nM]": 2.1}
{"SMILES": "CCC(=O)N(CC1CCCCN1C(=O)CCNC(=O)[C@H](Cc1ccccc1)NC(=O)CNC(=O)[C@@H](C)NC(=O)[C@@H](N)Cc1c(C)cc(O)cc1C)c1ccccc1 (stereo partly drawn)", "effect on": "cell-free assay", "Ki [nM]": 0.9}
{"SMILES": "CCCCC(=N)NCc1ccc2[nH]c3c(c2c1)CC1(O)C2Cc4ccc(O)c5c4C1(CCN2CC1CC1)C3O5 (stereo not drawn)", "effect on": "ligand displacement", "method": "radioligand", "notes": "cell membranes", "Ki [nM]": 0.88}
{"SMILES": "CCCCc1cc(Cc2ccccc2)cc2c1NCCC2NC(=O)C(N)Cc1c(C)cc(O)cc1C (stereo not drawn)", "effect on": "ligand displacement", "method": "radioligand", "notes": "cell membranes", "Ki [nM]": 0.76}
{"SMILES": "NCCCC[C@H]1NC(=O)[C@H](Cc2ccc(O)cc2)NC(=O)CNC(=O)[C@H](Cc2ccc(O)cc2)NC(=O)[C@H](CNC(=O)c2ccccc2N)NC1=O", "effect on": "ligand displacement", "method": "radioligand", "notes": "cell membranes", "Ki [nM]": 39}
{"SMILES": "Cc1cc(O)cc(C)c1CC(N)C(=O)NC1CCNc2c(CN3CCOCC3)cc(Cc3ccccc3)cc21 (stereo not drawn)", "effect on": "ligand displacement", "method": "radioligand", "notes": "cell membranes", "Ki [nM]": 0.15}
{"SMILES": "Oc1cccc(CCN(CCc2ccccc2)CC2CCCC2)c1", "effect on": "ligand displacement", "method": "radioligand", "notes": "cell membranes", "Ki [nM]": 130}
{"SMILES": "Cc1cc(O)cc(C)c1CC(N)C(=O)NC1CCNc2ccc(Cc3cccnc3)cc21 (stereo not drawn)", "effect on": "ligand displacement", "method": "radioligand", "notes": "cell membranes", "Ki [nM]": 0.66}
{"SMILES": "CC(=O)N[C@@H](Cc1ccccc1)C(=O)N[C@@H](Cc1ccccc1)C(=O)N[C@@H](Cc1c[nH]c2ccccc12)C(=O)N[C@@H](CCCNC(=N)N)C(=O)N[C@@H](CC(C)C)C(=O)N[C@@H](CCCNC(=N)N)C(=O)N[C@@H](CCCNC(=N)N)C(=O)N[C@H](C)C(=O)N[C@@H](CCCNC(=N)N)C(=O)N1CCC[C@H]1C(=O)N[C@@H](CCCCN)C(N)=O", "effect on": "ligand displacement", "method": "radioligand", "Ki [nM]": 1180}
{"SMILES": "Cc1cc(O)cc(C)c1C[C@H](N)C(=O)N1Cc2ccccc2C[C@H]1CN[C@@H](Cc1ccccc1)C(=O)N[C@@H](Cc1ccccc1)C(N)=O", "effect on": "ligand displacement", "method": "radioligand", "notes": "cell membranes", "Ki [nM]": 0.4}
{"SMILES": "Cc1cc(O)cc(C)c1CC(N)C(=O)NC1CCNc2ccc(CN3CCCCC3)cc21 (stereo not drawn)", "effect on": "ligand displacement", "method": "radioligand", "notes": "cell membranes", "Ki [nM]": 0.3}
{"SMILES": "C[C@@H](NC(=O)[C@@H](N)Cc1ccc(O)cc1)C(=O)NCC(=O)N[C@@H](Cc1ccc(F)cc1)C(=O)Nc1ccccc1NC(=O)[C@H](Cc1ccc(F)cc1)NC(=O)CNC(=O)[C@@H](C)NC(=O)[C@@H](N)Cc1ccc(O)cc1", "effect on": "ligand displacement", "method": "radioligand", "notes": "cell membranes", "Ki [nM]": 0.51}
{"SMILES": "CC(=O)NCC(=O)N(C)[C@@H](Cc1ccccc1)C(=O)N[C@@H](Cc1ccccc1)C(=O)N[C@@H](Cc1c[nH]c2ccccc12)C(=O)N[C@@H](CCCNC(=N)N)C(=O)N[C@@H](CC(C)C)C(=O)N[C@@H](CCCNC(=N)N)C(=O)N[C@@H](CCCNC(=N)N)C(=O)N[C@H](C)C(=O)N[C@@H](CCCNC(=N)N)C(=O)N1CCC[C@H]1C(=O)N[C@@H](CCCCN)C(N)=O", "effect on": "ligand displacement", "method": "radioligand", "Ki [nM]": 3760}
{"SMILES": "Cc1cc(O)cc(C)c1CC(N)C(=O)NC1CCNc2c(F)cc(Cc3ccccc3)cc21 (stereo not drawn)", "effect on": "ligand displacement", "method": "radioligand", "notes": "cell membranes", "Ki [nM]": 0.11}
{"SMILES": "CC(=O)N(C)[C@@H](Cc1ccccc1)C(=O)N[C@@H](Cc1ccccc1)C(=O)N[C@@H](Cc1ccc2ccccc2c1)C(=O)N[C@@H](CCCNC(=N)N)C(=O)N[C@@H](CC(C)C)C(=O)N[C@@H](CCCNC(=N)N)C(=O)N[C@@H](CCCNC(=N)N)C(=O)N[C@H](C)C(=O)N[C@@H](CCCNC(=N)N)C(=O)N1CCC[C@H]1C(=O)N[C@@H](CCCCN)C(N)=O", "effect on": "ligand displacement", "method": "radioligand", "Ki [nM]": 121}
{"SMILES": "CCOC(=O)c1cc(Cc2ccccc2)cc2c1NCCC2NC(=O)C(N)Cc1c(C)cc(O)cc1C (stereo not drawn)", "effect on": "ligand displacement", "method": "radioligand", "notes": "cell membranes", "Ki [nM]": 1}
